Published values collected from several papers.
Lines come from different studies, so protocols differ.
Partner: itself
B1: CGAS 1-157 (Homo sapiens, UniProt Q8N884); chain MQPWHGKAMQRASEAGATAPKASARNARGAPMDPTESPAAPEAALPKAGKFGPARKSGSRQKKSAPDTQERPPVRATGARAKKAPQRAQDTQPSDATSAPGAEGLEPPAAREPALSRAGSCRQRGARCSTKPRPPPGPWDVPSPGLPVSAPILVRRD
B2: SPOP E47K (Homo sapiens, UniProt O43791); sequence looked up; chain MSRVPSPPPPAEMSSGPVAESWCYTQIKVVKFSYMWTINNFSFCREKMGEVIKSSTFSSGANDKLKWCLRVNPKGLDEESKDYLSLYLLLVSCPKSEVRAKFKFSILNAKGEETKAMESQRAYRFVQGKDWGFKKFIRRDFLLDEANGLLPDDKLTLFCEVSVVQDSVNISGQNTMNMVKVPECRLADELGGLWENSRFTDCCLCVAGQEFQAHKAILAARSPVFSAMFEHEMEESKKNRVEINDVEPEVFKEMMCFIYTGKAPNLDKMADDLLAAADKYALERLKVMCEDALCSNLSVENAAEILILADLHSADQLKTQAVDFINYHASDVLETSGWKSMVVSHPHLVAEAYRSLASAQCPFLGPPRKRLKQS
B3: dsh 12-92 (Drosophila melanogaster, UniProt P51140); sequence looked up; chain KVIYHIDDETTPYLVKIPIPSAQVTLRDFKLVLNKQNNNYKYFFKSMDADFGVVKEEIADDSTILPCFNGRVVSWLVSADG
B4: ph-p SAM 1397-1577 D16K/D17R/D33K/D34R (Drosophila melanogaster, UniProt P39769); sequence looked up; chain GVGSGETNGLGTGGIVGVDAMALVDRLDEAMAEEKMQTEATPKLSESFPILGASTEVPPMSLPVQAAISAPSPLAMPLGSPLSVALPTLAPLSVVTSGAAPKSSEVNGTDRPPISSWSVKRVSNFIRELPGCQDYVKRFIQQEIDGQALLLLKEKHLVNAMGMKLGPALKIVAKVESIKEV
B5: Nlrp3 K970E/Q1001R/F1029A (Mus musculus, UniProt Q8R4B8); sequence looked up; chain MTSVRCKLAQYLEDLEDVDLKKFKMHLEDYPPEKGCIPVPRGQMEKADHLDLATLMIDFNGEEKAWAMAVWIFAAINRRDLWEKAKKDQPEWNDTCTSHSSMVCQEDSLEEEWMGLLGYLSRISICKKKKDYCKMYRRHVRSRFYSIKDRNARLGESVDLNSRYTQLQLVKEHPSKQEREHELLTIGRTKMRDSPMSSLKLELLFEPEDGHSEPVHTVVFQGAAGIGKTILARKIMLDWALGKLFKDKFDYLFFIHCREVSLRTPRSLADLIVSCWPDPNPPVCKILRKPSRILFLMDGFDELQGAFDEHIGEVCTDWQKAVRGDILLSSLIRKKLLPKASLLITTRPVALEKLQHLLDHPRHVEILGFSEAKRKEYFFKYFSNELQAREAFRLIQENEVLFTMCFIPLVCWIVCTGLKQQMETGKSLAQTSKTTTAVYVFFLSSLLQSRGGIEEHLFSDYLQGLCSLAADGIWNQKILFEECDLRKHGLQKTDVSAFLRMNVFQKEVDCERFYSFSHMTFQEFFAAMYYLLEEEAEGETVRKGPGGCSDLLNRDVKVLLENYGKFEKGYLIFVVRFLFGLVNQERTSYLEKKLSCKISQQVRLELLKWIEVKAKAKKLQWQPSQLELFYCLYEMQEEDFVQSAMDHFPKIEINLSTRMDHVVSSFCIKNCHRVKTLSLGFFHNSPKEEEEERRGGRPLDQVQCVFPDTHVACSSRLVNCCLTSSFCRGLFSSLSTNRSLTELDLSDNTLGDPGMRVLCEALQHPGCNIQRLWLGRCGLSHQCCFDISSVLSSSQKLVELDLSDNALGDFGIRLLCVGLKHLLCNLQKLWLVSCCLTSACCQDLALVLSSNHSLTRLYIGENALGDSGVQVLCEKMKDPQCNLQKLGLVNSGLTSICCSALTSVLKTNQNFTHLYLRSNALGDTGLRLLCEGLLHPDCKLQMLELDNCSLTSHSCWNLSTILTHNHSLRELNLGNNDLGDLCVVTLCEVLKQQGCLLQSLRLGEMYLNRETKRALEALQEEKPELTIVAEISW
B6: DDX50 K187R (Homo sapiens, UniProt Q9BQ39); sequence looked up; chain MPGKLLWGDIMELEAPLEESESQKKERQKSDRRKSRHHYDSDEKSETRENGVTDDLDAPKAKKSKMKEKLNGDTEEGFNRLSDEFSKSHKSRRKDLPNGDIDEYEKKSKRVSSLDTSTHKSSDNKLEETLTREQKEGAFSNFPISEETIKLLKGRGVTYLFPIQVKTFGPVYEGKDLIAQARTGTGRTFSFAIPLIERLQRNQETIKKSRSPKVLVLAPTRELANQVAKDFKDITRKLSVACFYGGTSYQSQINHIRNGIDILVGTPGRIKDHLQSGRLDLSKLRHVVLDEVDQMLDLGFAEQVEDIIHESYKTDSEDNPQTLLFSATCPQWVYKVAKKYMKSRYEQVDLVGKMTQKAATTVEHLAIQCHWSQRPAVIGDVLQVYSGSEGRAIIFCETKKNVTEMAMNPHIKQNAQCLHGDIAQSQREITLKGFREGSFKVLVATNVAARGLDIPEVDLVIQSSPPQDVESYIHRSGRTGRAGRTGICICFYQPRERGQLRYVEQKAGITFKRVGVPSTMDLVKSKSMDAIRSLASVSYAAVDFFRPSAQRLIEEKGAVDALAAALAHISGASSFEPRSLITSDKGFVTMTLESLEEIQDVSCAWKELNRKLSSNAVSQITRMCLLKGNMGVCFDVPTTESERLQAEWHDSDWILSVPAKLPEIEEYYDGNTSSNSRQRSGWSSGRSGRSGRSGGRSGGRSGRQSRQGSRSGSRQDGRRRSGNRNRSRSGGHKRSFD
B7: TOP2 C180A/C731A/K1134C (Saccharomyces cerevisiae, UniProt P06786); AlexaFluor 488/546 labels; sequence looked up; chain MSTEPVSASDKYQKISQLEHILKRPDTYIGSVETQEQLQWIYDEETDCMIEKNVTIVPGLFKIFDEILVNAADNKVRDPSMKRIDVNIHAEEHTIEVKNDGKGIPIEIHNKENIYIPEMIFGHLLTSSNYDDDEKKVTGGRNGYGAKLCNIFSTEFILETADLNVGQKYVQKWENNMSIAHPPKITSYKKGPSYTKVTFKPDLTRFGMKELDNDILGVMRRRVYDINGSVRDINVYLNGKSLKIRNFKNYVELYLKSLEKKRQLDNGEDGAAKSDIPTILYERINNRWEVAFAVSDISFQQISFVNSIATTMGGTHVNYITDQIVKKISEILKKKKKKSVKSFQIKNNMFIFINCLIENPAFTSQTKEQLTTRVKDFGSRCEIPLEYINKIMKTDLATRMFEIADANEENALKKSDGTRKSRITNYPKLEDANKAGTKEGYKCTLVLTEGDSALSLAVAGLAVVGRDYYGCYPLRGKMLNVREASADQILKNAEIQAIKKIMGLQHRKKYEDTKSLRYGHLMIMTDQDHDGSHIKGLIINFLESSFPGLLDIQGFLLEFITPIIKVSITKPTKNTIAFYNMPDYEKWREEESHKFTWKQKYYKGLGTSLAQEVREYFSNLDRHLKIFHSLQGNDKDYIDLAFSKKKADDRKEWLRQYEPGTVLDPTLKEIPISDFINKELILFSLADNIRSIPNVLDGFKPGQRKVLYGCFKKNLKSELKVAQLAPYVSEATAYHHGEQSLAQTIIGLAQNFVGSNNIYLLLPNGAFGTRATGGKDAAAARYIYTELNKLTRKIFHPADDPLYKYIQEDEKTVEPEWYLPILPMILVNGAEGIGTGWSTYIPPFNPLEIIKNIRHLMNDEELEQMHPWFRGWTGTIEEIEPLRYRMYGRIEQIGDNVLEITELPARTWTSTIKEYLLLGLSGNDKIKPWIKDMEEQHDDNIKFIITLSPEEMAKTRKIGFYERFKLISPISLMNMVAFDPHGKIKKYNSVNEILSEFYYVRLEYYQKRKDHMSERLQWEVEKYSFQVKFIKMIIEKELTVTNKPRNAIIQELENLGFPRFNKEGKPYYGSPNDEIAEQINDVKGATSDEEDEESSHEDTENVINGPEELYGTYEYLLGMRIWSLTKERYQKLLCQKQEKETELENLLKLSAKDIWNTDLKAFEVGYQEFLQRDAEARGGNVPNKGSKTKGKGKRKLVDDEDYDPSKKNKKSTARKGKKIKLEDKNFERILLEQKLVTKSKAPTKIKKEKTPSVSETKTEEEENAPSSTSSSSIFDIKKEDKDEGELSKISNKFKKISTIFDKMGSTSATSKENTPEQDDVATKKNQTTAKKTAVKPKLAKKPVRKQQKVVELSGESDLEILDSYTDREDSNKDEDDAIPQRSRRQRSSRAASVPKKSYVETLELSDDSFIEDDEEENQGSDVSFNEED
B8: GLRA1 C290S/C345A/A41C (Homo sapiens, UniProt P23415-2); MTS-benzophenone-alkyne at C41; sequence looked up; chain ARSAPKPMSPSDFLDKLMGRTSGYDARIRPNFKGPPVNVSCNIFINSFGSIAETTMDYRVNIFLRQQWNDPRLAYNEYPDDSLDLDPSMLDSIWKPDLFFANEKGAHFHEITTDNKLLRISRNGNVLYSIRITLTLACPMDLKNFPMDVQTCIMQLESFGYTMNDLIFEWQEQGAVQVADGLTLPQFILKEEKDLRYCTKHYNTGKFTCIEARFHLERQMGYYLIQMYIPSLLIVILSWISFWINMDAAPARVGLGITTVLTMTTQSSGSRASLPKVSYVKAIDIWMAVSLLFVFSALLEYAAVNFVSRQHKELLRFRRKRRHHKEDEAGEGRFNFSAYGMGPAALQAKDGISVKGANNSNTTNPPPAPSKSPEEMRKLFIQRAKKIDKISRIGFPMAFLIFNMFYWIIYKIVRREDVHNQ
B9: TAF15 7-99 del28-42 (Homo sapiens, UniProt Q92804); sequence looked up; chain YGQSGGEQQSYSTYGNPGSQGDSSYGQNYSGYSSYGQSQSGYSQSYGGYENQKQSSYSQQPYNNQGQQQNMESSGSQG
B10: mgtA 1-898 D780A (Escherichia coli, UniProt P0ABB8); chain MFKEIFTRLIRHLPSRLVHRDPLPGAQQTVNTVVPPSLSAHCLKMAVMPEEELWKTFDTHPEGLNQAEVESAREQHGENKLPAQQPSPWWVHLWVCYRNPFNILLTILGAISYATEDLFAAGVIALMVAISTLLNFIQEARSTKAADALKAMVSNTATVLRVINDKGENGWLEIPIDQLVPGDIIKLAAGDMIPADLRILQARDLFVAQASLTGESLPVEKAATTRQPEHSNPLECDTLCFMGTTVVSGTAQAMVIATGANTWFGQLAGRVSEQESEPNAFQQGISRVSMLLIRFMLVMAPVVLLINGYTKGDWWEAALFALSVAVGLTPEMLPMIVTSTLARGAVKLSKQKVIVKHLDAIQNFGAMDILCTDKTGTLTQDKIVLENHTDISGKTSERVLHSAWLNSHYQTGLKNLLDTAVLEGTDEESARSLASRWQKIDEIPFDFERRRMSVVVAENTEHHQLVCKGALQEILNVCSQVRHNGEIVPLDDIMLRKIKRVTDTLNRQGLRVVAVATKYLPAREGDYQRADESDLILEGYIAFLDPPKETTAPALKALKASGITVKILTGDSELVAAKVCHEVGLDAGEVVIGSDIETLSDDELANLAQRTTLFARLTPMHKERIVTLLKREGHVVGFMGDGINDAPALRAADIGISVDGAVDIAREAADIILLEKSLMVLEEGVIEGRRTFANMLKYIKMTASSNFGNVFSVLVASAFLPFLPMLPLHLLIQNLLYDVSQVAIPFDNVDDEQIQKPQRWNPADLGRFMIFFGPISSIFAILTFCLMWWVFHANTPETQTLFQSGWFVVGLLSQTLIVHMIRTRRVPFIQSCASWPLMIMTVIVMIVGIALPFSPLASYLQLQALPLSYFPWLVAILAGYMTLTQLVKGFYSRRYGWQ
B11: EHI_164900 (Entamoeba histolytica, UniProt C4M1Y3); sequence looked up; chain MSDTKETVPTNNEEKLDIEPKKDIKEEVKPEEEHKEEEHKEEKPEEVKPEEVKPEEVKPEEVKPEEEKKNESNEQQKVKVIMVGESSVGKTCCMNRYVSNEFAEQTKATIGVGVGSKEVEVEGKHIKLQIWDTAGQERFATLTGNYFRNAMAAIIMFDVSNKESFENIPNWVEQCCKSDGKHIIFIAGNKIDLENRVVSKEEAEEKAKELKLKYFEVSAKTGDGIEDLFNELIKEIMKTPFCNEQEKEGVELDGQKKQKKGGCC

Molecule	assay	conditions	binding
B1 (CGAS 1-157)	NMR titration		binds
B2 (SPOP E47K)	negative-stain TEM		binds
B3 (dsh 12-92)	SEC		binds
B4	AUC		binds
B5 (Nlrp3 K970E/Q1001R/F1029A)	sucrose gradient sedimentation, negative-stain EM		binds
B6 (DDX50 K187R)	MST		binds
B7 (TOP2 C180A/C731A/K1134C)	FRET or BRET	together with: ADP, ATP, ADPNP	binds
B8 (GLRA1 C290S/C345A/A41C)	cross-linking		binds
B9 (TAF15 7-99 del28-42)	ThT fluorescence, negative-stain TEM	peptide	binds
B10 (mgtA 1-898 D780A)	native gel or EMSA		binds
B11 (EHI_164900)	immunoblot		binds

Repeated from above:
Molecule	assay	conditions	binding
B1 (CGAS 1-157)	NMR titration		binds
B2 (SPOP E47K)	negative-stain TEM		binds
